Measured values of several laboratories.
Numbered parts are unrelated; each lists some results of a single study. Substitutions count along the parent as printed.

Set 1 — technique: DHFR PCA, deep sequencing; medium: yeast; with: (+)-ABA 200 µM; relative to: wild-type fitted maximum; direction: higher = stronger binding; measurement: relative binding score
Target: ABI1, truncated, D143A, DHFR fusion (Arabidopsis thaliana)
Setting: methotrexate growth selection, single substitutions
Parent: PYL1, truncated, DHFR fusion (Arabidopsis thaliana); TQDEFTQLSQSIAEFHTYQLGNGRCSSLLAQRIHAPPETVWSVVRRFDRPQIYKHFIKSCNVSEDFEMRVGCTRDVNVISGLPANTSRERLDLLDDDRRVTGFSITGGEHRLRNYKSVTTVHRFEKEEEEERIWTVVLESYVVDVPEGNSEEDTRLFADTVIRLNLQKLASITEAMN
F15K: 33.9%
I52H: 93.7%
E109V: 95.1%
N165G: 18.7%
D153R: 2.87%
R90A: 76.2%
E4F: 83.8%

Set 2 — technique: RNAcompete; molecule type: RNA; medium: in vitro; tested at: 20 nM; setting: 7-mer, probes averaged, single round; relative to: mean of 7-mers; direction: higher = stronger binding; measurement: 7-mer Z-score
Target: PABPC1L2, full length, GST fusion (mouse, UniProt A0ABA7IW68)
Residues (chain): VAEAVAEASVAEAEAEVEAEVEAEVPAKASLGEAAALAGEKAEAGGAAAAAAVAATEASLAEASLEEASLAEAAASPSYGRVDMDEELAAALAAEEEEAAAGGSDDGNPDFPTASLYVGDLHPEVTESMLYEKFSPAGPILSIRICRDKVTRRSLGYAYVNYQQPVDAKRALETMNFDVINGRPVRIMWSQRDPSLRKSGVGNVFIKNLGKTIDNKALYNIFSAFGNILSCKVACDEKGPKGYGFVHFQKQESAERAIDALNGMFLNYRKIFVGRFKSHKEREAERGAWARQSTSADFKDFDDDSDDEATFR
GCUGACG: -0.079
ACCUGCU: -0.0591
UUGAGGG: 0.104
CGGUUUC: -0.385
UGUCCUA: -0.213
CAACUGG: -0.146
AGGACCC: -0.0554
UGGCGCU: -0.161

Set 3 — technique: protein-binding microarray; molecule type: double-stranded DNA, one strand shown; medium: in vitro; tested at: 2200 nM top; setting: 60-bp whole probe; with: salmon DNA 0.4 mg/ml; relative to: random background probes; direction: higher = stronger binding; measurement: fitted relative affinity; shared flanks, not repeated: GCCTAGCAC … GTCTTGATTCGCTTGACGCTGCTG
Target: Interferon regulatory factor 7, full length, phosphomimetic (IRF7, Homo sapiens, UniProt Q92985, residues 1-503, S471D/S472D/S475D/S476D/S477D/S483D/S484D/S487D)
Sequence of UniProt Q92985 (whole entry, unmodified, looked up): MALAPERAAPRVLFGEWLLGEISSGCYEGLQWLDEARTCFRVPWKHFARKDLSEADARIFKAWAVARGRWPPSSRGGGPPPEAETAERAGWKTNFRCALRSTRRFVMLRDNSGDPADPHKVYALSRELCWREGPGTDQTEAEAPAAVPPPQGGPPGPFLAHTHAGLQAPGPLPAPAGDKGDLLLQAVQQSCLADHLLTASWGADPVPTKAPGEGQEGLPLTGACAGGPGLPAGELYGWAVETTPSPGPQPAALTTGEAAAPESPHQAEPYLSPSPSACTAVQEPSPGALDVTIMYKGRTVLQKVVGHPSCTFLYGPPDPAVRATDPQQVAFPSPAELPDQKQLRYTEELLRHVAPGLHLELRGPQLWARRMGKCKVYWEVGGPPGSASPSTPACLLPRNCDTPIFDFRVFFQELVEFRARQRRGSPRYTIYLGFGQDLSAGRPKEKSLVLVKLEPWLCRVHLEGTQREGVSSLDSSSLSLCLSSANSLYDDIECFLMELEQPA
TTAGAACAGGGGACTGGATTAGTGCTA: -0.436 z-score
TTGCAGATGACGAAACTGAAGTGCTAG: 0.34 z-score
CTAGGTATCGGGACTGGGTTAGTGCTA: -0.47 z-score
TATTTTTTCTGAACCATTTTGTGCTAG: 1.59 z-score
TTAGGTATCGACTATCGGTTCGTGCTA: 1.11 z-score
TTAGGTTTACTTTCCCTTTAGTGCTAG: 6.73 z-score
TCACATCTGATTTCTCAAACTGTGCTA: 1.22 z-score
TCATTTGTTTTTTTCTAACTGTGCTAG: 2.04 z-score
AGTGTGGTCTGTTTCTGATAGTGCTAG: 1.28 z-score
TCCGTATGGATGGCCAATTGGTGCTAG: 0.0263 z-score
TTAGATATCAATTTCGATTAGTGCTAG: 2.58 z-score
CTATGTCTGTTTTTGCTTTCGTGCTAG: 4.01 z-score
TTAGGACTGCTACCGCTTTAGTGCTAG: 0.332 z-score

Further values, each from its own experiment
LLKRLQDVVSERA
enrichment score (Saccharomyces cerevisiae; peptide binding, yeast competitive growth sequencing; peptide, cyclin E2-Cln2 fusion; library 2; direction not given): -1.04

PhoQ, residues 284 288 289 292 302 303 AANNSF
fold induction (PhoP, residues 12 14 15 18 19 MHTVL (Escherichia coli, UniProt P23836); Sort-seq, item: YFP reporter; E. coli; PhoQ-PhoP variant library, with: 10 µM Mg2+; relative to: high Mg2+ state, higher = stronger signaling): 16.3

Some of these lines once more (set 3):
CTAGGTATCGGGACTGGGTTAGTGCTA: -0.47 z-score
TATTTTTTCTGAACCATTTTGTGCTAG: 1.59 z-score
TTAGGTATCGACTATCGGTTCGTGCTA: 1.11 z-score
